Measurements pooled from the literature.
Protocols differ between the studies behind these lines. ± gives the spread as reported.
tmk: Thymidylate kinase (tmk, Mycobacterium tuberculosis, UniProt P9WKE1)
Sequence of UniProt P21554 (whole entry, unmodified, looked up): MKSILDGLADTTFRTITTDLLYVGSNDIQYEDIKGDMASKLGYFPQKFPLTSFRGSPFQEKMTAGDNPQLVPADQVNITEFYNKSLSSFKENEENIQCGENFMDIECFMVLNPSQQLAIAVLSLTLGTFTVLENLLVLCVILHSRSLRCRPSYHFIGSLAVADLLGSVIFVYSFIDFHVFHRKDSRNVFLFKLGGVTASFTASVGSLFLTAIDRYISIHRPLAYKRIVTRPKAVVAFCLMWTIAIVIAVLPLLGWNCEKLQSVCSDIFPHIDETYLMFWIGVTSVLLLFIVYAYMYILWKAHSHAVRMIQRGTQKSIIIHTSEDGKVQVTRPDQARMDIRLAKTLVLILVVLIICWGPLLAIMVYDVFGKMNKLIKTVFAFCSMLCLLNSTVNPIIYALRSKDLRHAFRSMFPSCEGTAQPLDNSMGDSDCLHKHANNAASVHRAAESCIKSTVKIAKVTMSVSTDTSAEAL
Sequence of UniProt P9WKE1 (whole entry, looked up): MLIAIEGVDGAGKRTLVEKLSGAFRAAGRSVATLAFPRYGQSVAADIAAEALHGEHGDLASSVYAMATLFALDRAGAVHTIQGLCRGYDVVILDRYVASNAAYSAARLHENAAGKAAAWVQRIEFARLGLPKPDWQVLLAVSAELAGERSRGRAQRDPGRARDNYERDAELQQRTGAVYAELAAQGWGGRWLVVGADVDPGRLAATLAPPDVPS
Sequence of UniProt Q9Y6M4 (whole entry, looked up): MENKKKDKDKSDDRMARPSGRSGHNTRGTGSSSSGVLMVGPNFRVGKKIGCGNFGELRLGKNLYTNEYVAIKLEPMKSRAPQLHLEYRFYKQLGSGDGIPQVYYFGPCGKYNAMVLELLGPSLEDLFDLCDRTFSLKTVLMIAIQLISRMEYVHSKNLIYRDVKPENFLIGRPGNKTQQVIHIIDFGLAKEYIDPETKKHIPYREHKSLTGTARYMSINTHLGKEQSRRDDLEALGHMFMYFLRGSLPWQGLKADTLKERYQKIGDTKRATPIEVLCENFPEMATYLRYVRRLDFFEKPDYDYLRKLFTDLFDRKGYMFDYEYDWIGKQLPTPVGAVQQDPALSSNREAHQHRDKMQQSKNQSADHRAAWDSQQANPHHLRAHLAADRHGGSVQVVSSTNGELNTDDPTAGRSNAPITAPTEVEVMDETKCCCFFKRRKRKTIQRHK
Sequence of UniProt O00750 (whole entry, looked up): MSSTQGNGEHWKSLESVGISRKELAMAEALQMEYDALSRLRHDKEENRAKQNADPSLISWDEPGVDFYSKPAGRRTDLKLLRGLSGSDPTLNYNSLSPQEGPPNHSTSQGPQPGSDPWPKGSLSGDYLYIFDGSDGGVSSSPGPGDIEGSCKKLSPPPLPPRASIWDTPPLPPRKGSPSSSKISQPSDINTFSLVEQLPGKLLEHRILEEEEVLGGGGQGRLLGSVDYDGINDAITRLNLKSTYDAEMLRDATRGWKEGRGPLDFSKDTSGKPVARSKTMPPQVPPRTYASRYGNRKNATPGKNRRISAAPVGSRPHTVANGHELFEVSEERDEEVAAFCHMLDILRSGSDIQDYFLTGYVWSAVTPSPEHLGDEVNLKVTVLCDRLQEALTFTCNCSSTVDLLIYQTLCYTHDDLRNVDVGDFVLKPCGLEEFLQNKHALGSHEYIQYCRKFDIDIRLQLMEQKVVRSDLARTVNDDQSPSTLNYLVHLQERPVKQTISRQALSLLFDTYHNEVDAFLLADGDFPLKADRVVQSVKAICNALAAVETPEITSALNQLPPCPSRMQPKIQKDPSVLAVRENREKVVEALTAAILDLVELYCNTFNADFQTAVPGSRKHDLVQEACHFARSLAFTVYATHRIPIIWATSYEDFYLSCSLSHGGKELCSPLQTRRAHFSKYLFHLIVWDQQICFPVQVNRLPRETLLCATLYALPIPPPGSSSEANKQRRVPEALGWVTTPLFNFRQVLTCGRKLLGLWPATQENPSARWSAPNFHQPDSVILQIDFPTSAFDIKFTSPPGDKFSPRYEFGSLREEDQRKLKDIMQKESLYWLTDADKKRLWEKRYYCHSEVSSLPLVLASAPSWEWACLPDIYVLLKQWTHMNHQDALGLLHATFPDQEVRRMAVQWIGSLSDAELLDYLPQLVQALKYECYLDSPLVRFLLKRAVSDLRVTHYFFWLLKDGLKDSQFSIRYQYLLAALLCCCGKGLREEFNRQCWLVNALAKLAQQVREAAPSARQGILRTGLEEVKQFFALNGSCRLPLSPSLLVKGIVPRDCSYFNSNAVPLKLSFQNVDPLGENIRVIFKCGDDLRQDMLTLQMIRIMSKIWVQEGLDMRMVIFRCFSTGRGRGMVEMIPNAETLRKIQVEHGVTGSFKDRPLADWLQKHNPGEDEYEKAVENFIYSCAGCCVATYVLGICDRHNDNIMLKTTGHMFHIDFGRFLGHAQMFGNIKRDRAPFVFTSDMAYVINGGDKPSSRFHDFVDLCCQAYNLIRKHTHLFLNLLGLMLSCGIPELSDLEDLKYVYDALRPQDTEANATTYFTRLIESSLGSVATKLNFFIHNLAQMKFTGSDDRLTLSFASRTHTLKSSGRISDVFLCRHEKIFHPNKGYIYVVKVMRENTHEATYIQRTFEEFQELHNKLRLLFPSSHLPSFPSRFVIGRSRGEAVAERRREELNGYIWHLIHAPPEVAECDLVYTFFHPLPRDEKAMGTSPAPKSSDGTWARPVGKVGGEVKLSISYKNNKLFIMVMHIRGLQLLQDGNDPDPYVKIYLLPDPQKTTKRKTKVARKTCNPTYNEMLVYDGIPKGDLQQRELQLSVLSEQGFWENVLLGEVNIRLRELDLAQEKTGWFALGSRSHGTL
Sequence of UniProt P30411 (whole entry, looked up): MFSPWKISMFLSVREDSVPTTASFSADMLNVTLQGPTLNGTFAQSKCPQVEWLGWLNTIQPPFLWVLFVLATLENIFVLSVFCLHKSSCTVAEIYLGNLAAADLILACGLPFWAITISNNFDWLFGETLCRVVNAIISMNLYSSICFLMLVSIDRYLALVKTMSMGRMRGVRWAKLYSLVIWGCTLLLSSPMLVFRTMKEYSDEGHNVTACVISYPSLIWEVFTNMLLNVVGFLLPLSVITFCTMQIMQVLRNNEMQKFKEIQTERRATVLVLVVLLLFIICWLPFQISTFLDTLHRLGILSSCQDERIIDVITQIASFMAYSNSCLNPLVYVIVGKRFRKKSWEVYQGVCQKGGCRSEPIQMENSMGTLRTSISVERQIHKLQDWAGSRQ
Sequence of UniProt P08631 (whole entry, unmodified, looked up): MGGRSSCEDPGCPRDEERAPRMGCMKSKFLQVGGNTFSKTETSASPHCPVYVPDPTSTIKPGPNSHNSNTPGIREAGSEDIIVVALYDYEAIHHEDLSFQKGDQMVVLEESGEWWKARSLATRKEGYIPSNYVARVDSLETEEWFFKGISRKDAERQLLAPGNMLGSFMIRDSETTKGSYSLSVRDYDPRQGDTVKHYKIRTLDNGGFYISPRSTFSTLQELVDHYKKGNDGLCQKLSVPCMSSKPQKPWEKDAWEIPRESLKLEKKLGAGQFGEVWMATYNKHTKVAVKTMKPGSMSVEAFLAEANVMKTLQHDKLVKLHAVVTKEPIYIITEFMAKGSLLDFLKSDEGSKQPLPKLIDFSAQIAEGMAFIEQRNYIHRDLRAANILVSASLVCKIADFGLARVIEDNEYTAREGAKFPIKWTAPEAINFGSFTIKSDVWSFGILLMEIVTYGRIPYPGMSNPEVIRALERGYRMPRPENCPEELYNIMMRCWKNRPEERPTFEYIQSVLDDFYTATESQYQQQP
Sequence of UniProt Q9Y6E0 (whole entry, looked up): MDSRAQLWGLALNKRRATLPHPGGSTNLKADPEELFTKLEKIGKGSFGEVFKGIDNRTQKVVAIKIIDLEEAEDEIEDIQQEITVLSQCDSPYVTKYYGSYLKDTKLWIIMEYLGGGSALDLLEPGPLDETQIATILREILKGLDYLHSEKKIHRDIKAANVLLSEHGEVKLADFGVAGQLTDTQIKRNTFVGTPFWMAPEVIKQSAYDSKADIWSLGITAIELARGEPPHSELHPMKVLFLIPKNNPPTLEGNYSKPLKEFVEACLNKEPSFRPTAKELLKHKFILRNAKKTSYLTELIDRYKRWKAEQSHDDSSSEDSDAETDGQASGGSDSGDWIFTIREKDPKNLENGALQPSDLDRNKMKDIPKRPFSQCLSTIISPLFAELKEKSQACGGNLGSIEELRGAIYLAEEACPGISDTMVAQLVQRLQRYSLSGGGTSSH
Sequence of UniProt P34972 (whole entry, unmodified, looked up): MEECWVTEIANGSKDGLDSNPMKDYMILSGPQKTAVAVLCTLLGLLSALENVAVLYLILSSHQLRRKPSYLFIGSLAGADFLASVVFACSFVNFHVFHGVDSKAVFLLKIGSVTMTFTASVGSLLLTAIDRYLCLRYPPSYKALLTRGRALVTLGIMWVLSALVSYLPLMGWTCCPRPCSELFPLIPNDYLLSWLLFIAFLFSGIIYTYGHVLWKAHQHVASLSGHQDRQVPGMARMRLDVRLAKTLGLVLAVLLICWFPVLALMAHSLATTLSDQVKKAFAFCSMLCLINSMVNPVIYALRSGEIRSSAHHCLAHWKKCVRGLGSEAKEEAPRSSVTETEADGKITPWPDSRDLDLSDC

`O=C1NC(=O)c2c1c1cc(F)c[n+]3c1c1c2c2cc(O)ccc2[n]1[Ru-4]312([N]=C=S)[S+]3CC[S+]1CC[S+]2CC3` (stereo not shown) gave a remaining activity of 49% (AMPK (rat); kinase activity, inhibitor; 100 nM, added: 10 µM ATP).
`CN(C)[C@H]1C[C@@]23CC[C@@]4(O2)C(=CC[C@]2(C)[C@@H](c5ccc6ccncc6c5)CC[C@H]24)C=C3[C@@H](O)[C@@H]1O` gave an inhibition of 6.5% (MAP3K4 (Homo sapiens, UniProt Q9Y6R4); ATP probe labelling, inhibitor, KiNativ profiling; 1 µM).
For `Nc1ccc(/C=C/C(=O)N2CCc3c(oc4c(-c5ccc(F)cc5)cc(-c5ccc(C(=O)N6CCC(F)(F)CC6)cn5)cc34)C2)cn1`, the remaining binding was 100% (PIK3C2B (Homo sapiens, UniProt O00750); binding, competition with immobilised ligand; 1 µM).
With `CS(C)(=O)=Nc1ccc(-c2ccc(-c3nc4cc(O[C@@H]5CO[C@H]6[C@@H]5OC[C@H]6O)[nH]c4cc3F)cc2)cc1` the inhibition was -8% (CSNK1G3 (Homo sapiens, UniProt Q9Y6M4); enzyme activity, inhibitor; 10 µM).
`Cc1ccc(C(=O)Nc2ccc(CN3CCN(C)CC3)c(C(F)(F)F)c2)cc1C#Cc1cnc2cccnn12` has a bound fraction of 97% (HCK (Homo sapiens, UniProt P08631, Y411F); concentration not given).
`O=C1NC2(CC2)COc2ncc(F)cc2[C@H]2COCCN2c2ccn3ncc1c3n2` has a total cholesterol of 1.53 ± 0.21 mmol/L (Sprague-Dawley rat, male, serum; oral, 5 mg/kg/day, 4 weeks daily, end of treatment).
The inhibition of `O=C(NC1CCN(c2ncnc3[nH]cnc23)CC1)c1cccc(NS(=O)(=O)c2ccc(C(F)(F)F)cc2)c1` is reported as 12.5% (Replicase polyprotein 1ab, nsp14 (rep, Human coronavirus 229E, UniProt P0C6X1); enzyme activity; 0.7812 µM).
With `CCCCCn1cc(C(=O)c2cccc3c2CC(C)(C)C3)c2ccccc21` the Emax was 20.7 ± 11.1% (CNR1 (Homo sapiens, UniProt P21554, F177A); Gαi1 engagement, agonist, BRET; relative to: reference agonist at wild-type CB1).
`CC(C)[C@H]1NC(=O)C[C@H]2/C=C/CCSSC[C@@H](NC1=O)C(=O)N[C@H](Cc1cccc3ccccc13)C(=O)NCC(=O)O2` gave an inhibition of 3.4% (STK24 (Homo sapiens, UniProt Q9Y6E0); enzyme activity, inhibitor; 10 µM).
`NC[C@@H](CC[C@H](N)C(=O)O)C[C@H]1O[C@@H](n2cnc3c(N)ncnc32)[C@H](O)[C@@H]1O` has a Hill slope of -0.8 (Replicase polyprotein 1ab, nsp10-nsp16 complex (rep, Human coronavirus 229E, UniProt P0C6X1)).
The remaining binding of `Cc1sc2c(c1C)C(c1ccc(Cl)cc1)=NC(CC(=O)OC(C)(C)C)c1nnc(C)n1-2` (stereo not shown) is reported as 103% (BDKRB2 (Homo sapiens, UniProt P30411); ligand displacement, radioligand; 1 µM).
For `CCCCCn1cc(C(=O)c2ccc3ccccc3c2)c2ccccc21`, “bias factor (ΔΔlog(Emax/EC50))” read -0.71 (CNR2 (Homo sapiens, UniProt P34972); agonist, BRET; relative to: Gαi1 over β-arrestin 2, reference agonist).
`CCOC(=O)C1=C(C)NC(=NN=C2C(=O)Nc3ccc(C)cc32)NC1c1ccc(F)cc1` (stereo not shown) has an inhibition of 69.6% (tmk; enzyme activity, inhibitor, absorbance; 1 µg/mL).
For `CCCCCn1cc(C(=O)c2ccc3c(c2)CC(C)(C)C3)c2ccccc21`, the Emax was 19.1 ± 7.3% (CNR1 (Homo sapiens, UniProt P21554, H178A); Gαi1 engagement, agonist, BRET; relative to: reference agonist at wild-type CB1).
`CCOC(=O)C1=C(C)NC(=NN=C2C(=O)Nc3ccccc32)NC1c1ccc(F)cc1` (stereo not shown) has an inhibition of 81.2% (tmk; enzyme activity, inhibitor, absorbance; 10 µg/mL).
The Emax of `Cc1ccc2c(C(C[N+](=O)[O-])c3cccs3)c(-c3ccccc3)[nH]c2c1` (stereo not shown) is reported as 112 ± 7.05% (CNR1 (Homo sapiens, UniProt P21554, I245F); Gαi1-γ2 dissociation, BRET).

A few entries again:
`CN(C)[C@H]1C[C@@]23CC[C@@]4(O2)C(=CC[C@]2(C)[C@@H](c5ccc6ccncc6c5)CC[C@H]24)C=C3[C@@H](O)[C@@H]1O` gave an inhibition of 6.5% (MAP3K4 (Homo sapiens, UniProt Q9Y6R4); ATP probe labelling, inhibitor, KiNativ profiling; 1 µM).
The remaining binding of `Cc1sc2c(c1C)C(c1ccc(Cl)cc1)=NC(CC(=O)OC(C)(C)C)c1nnc(C)n1-2` (stereo not shown) is reported as 103% (BDKRB2 (Homo sapiens, UniProt P30411); ligand displacement, radioligand; 1 µM).
